Published values collected from several papers.
Lines come from different studies, so protocols differ. Values joined by “and” are separate records of one study, mostly repeats; a detail may differ. ± gives the spread as reported.

The EC50 of `O=C1C=C(NCc2ccccc2)C(=O)c2ccccc21` is reported as 3.24 µM and 3.2 µM (mitogen-stimulated human PBMC; cell proliferation, inhibitor, MTS).
The EC50 of `CN(C)C1CCN(CC#Cc2nn(C3CCCC3)c3nc(NCc4ccccc4)ncc23)C1` (stereo not shown) is reported as 2.41 µM (T98; cell growth or viability, resazurin; 5 days).
With `Cc1cc(Nc2ccc(NC(=O)c3ccc(Nc4cc(-c5ccccc5)nc5ccccc45)cc3)cc2)nc(N)n1` the EC50 was 1.3 µM (KG-1; cell proliferation; 3 days, 15 % fetal calf serum).
For `N=C(NCCCCCN)c1ccc(OCCCCCOc2ccc(C(=N)NCCCCCN)cc2)cc1`, the EC50 was 37.1 ± 3.6 µM (WM-115, scrambled shRNA; cell growth, SYBR Green; high S100B).
With `COc1cc(F)c([C@@H]2CNC(=O)[C@H]2NC(=O)Nc2ccccc2)c(F)c1` the EC50 was 0.004 µM (differentiated HL-60 FPR1-deficient; chemotaxis, agonist; stimulatory phase bell curve).
`CN(C)C/C=C/C(=O)Nc1cc2c(Nc3ccc(F)c(Cl)c3)ncnc2cc1O[C@H]1CCOC1` has an EC50 of about 0.01 µM (A-431; protein phosphorylation, phosphoproteomics).
With `CC[C@H](C)[C@H](NC(=O)[C@H](CCC(=O)O)NC(=O)[C@H](CC(=O)O)NC(=O)CNC(=O)[C@H](CC(C)C)NC(=O)[C@H](CCCNC(=N)N)NC(=O)[C@H](CCCNC(=N)N)NC(=O)[C@H](CC(C)C)NC(=O)CNC(=O)[C@H](CCC(N)=O)NC(=O)[C@@H](NC(=O)[C@H](CCSC)NC(=O)[C@H](Cc1c[nH]c2ccccc12)NC(=O)[C@@H](NC(=O)[C@H](CCC(=O)O)NC(=O)[C@@H]1CCCN1C(=O)[C@H](CCCNC(=N)N)NC(C)=O)[C@@H](C)CC)[C@@H](C)O)C(=O)N[C@@H](CC(N)=O)C(=O)N[C@@H](C)C(=O)N[C@@H](Cc1ccc(O)cc1)C(=O)N[C@@H](Cc1ccc(O)cc1)C(=O)N[C@@H](C)C(=O)N[C@@H](CCCNC(=N)N)C(N)=O` the EC50 was over 100 µM (Pfeiffer, permeabilized; mitochondrial depolarization, BH3 profiling, JC-1; 3 h).
The EC50 of `fibronectin` is reported as 0.007 µM (B16-F10; cell spreading on coated substance; coating concentration).
With `Nc1ccn([C@@H]2O[C@H](CO)[C@@H](O)[C@@H]2O)c(=O)n1` the EC50 was 3310 µM (ENT2 knockout; cell viability, MTT; 48 h, low affinity phase).
With `CC[C@H](C)[C@H](NC(=O)[C@H](CCC(=O)O)NC(=O)[C@H](CC(=O)O)NC(=O)CNC(=O)[C@H](CC(C)C)NC(=O)[C@H](CCCNC(=N)N)NC(=O)[C@H](CCC(N)=O)NC(=O)[C@H](CC(C)C)NC(=O)[C@H](CO)NC(=O)[C@H](CCC(N)=O)NC(=O)[C@@H](NC(=O)[C@H](CC(C)C)NC(=O)[C@H](Cc1c[nH]c2ccccc12)NC(=O)[C@@H](NC(=O)[C@H](CCC(=O)O)NC(=O)[C@@H]1CCCN1C(=O)[C@H](CCCNC(=N)N)NC(C)=O)[C@@H](C)CC)[C@@H](C)O)C(=O)N[C@@H](CC(N)=O)C(=O)N[C@@H](C)C(=O)N[C@@H](Cc1ccc(O)cc1)C(=O)N[C@@H](Cc1ccc(O)cc1)C(=O)N[C@@H](C)C(=O)N[C@@H](CCCNC(=N)N)C(N)=O` the EC50 was over 100 µM (Bcl-2/Myc 2924, permeabilized; mitochondrial depolarization, BH3 profiling, JC-1; 3 h).
The EC50 of `COc1ccc2cc(CCC(C)=O)ccc2c1` is reported as about 15 µM (Kasumi-1; cell proliferation, XTT).
The EC50 of `teriparatide` is reported as 0.031 ± 0.01 µM (HEK-PR1; calcium signal, potentiator; added: carbachol).
`CC(C)C(C(=O)c1ccc(OCCN(C)C)cc1)c1ccccc1` (stereo not shown) has an EC50 of 4 to 4.4 µM (type 2 Gaucher disease patient cells, L444P/L444P; lysosomal calcium release; added: GPN).
